Measurements of several laboratories.
± marks the error that the study gave.

SMILES = O=c1nc(NO)ccn1[C@@H]1O[C@H](CO)[C@@H](O)[C@H]1O; assay = RT-PCR, refers to: CYP2B2; test system = rat, arthritis model, liver; setting = oral, 80 mg/kg twice daily, 5 days; how to read = reference: untreated arthritic rats; quantity = mRNA level; value = 0.8 fold
SMILES = Cn1c(=O)oc2ccc(-c3ccc(CC(C#N)NC(=O)C4CNCCCO4)c(F)c3)cc21 (stereo not shown); assay = refers to: bacterial test positive; test system = human volunteers; setting = oral, dose not given; quantity = treatment-emergent adverse event incidence; value = 7.4%
SMILES = O=C(NCCCN(CCCCN(CCCNC(=O)c1cccc(=O)n1[O-])C(=O)c1cccc(=O)n1[O-])C(=O)c1cccc(=O)n1[O-])c1cccc(=O)n1[O-].[89Zr+4]; assay = radio-TLC; test system = PBS; setting = 1 d, pH 7.4, 37 °C, added: Zn^2+ 10-fold excess; quantity = intact complex; value = 98.7 ± 1.9%
SMILES = COc1cc(OC)cc(C2=C3C(C)=C(I)C(/C=C/c4cccs4)=[N+]3[B-](F)(F)n3c(/C=C/c4cccs4)c(I)c(C)c32)c1; test system = dichloromethane; quantity = log molar absorptivity; value = 4.59 M⁻¹ cm⁻¹
SMILES = Oc1ccc2ccccc2c1/N=N/c1ccc(/N=N/c2ccccc2)cc1; test system = rat whole blood QC samples; setting = 16.0 µg/L, 2 h, room temperature, short-term stability; quantity = measured concentration; value = 16.1 µg/L
SMILES = OC[C@H]1O[C@@H](OCCOCCOCC[N+]2(C[B-](F)(F)F)CCOCC2)[C@H](O)[C@@H](O)[C@@H]1O; assay = chemical stability, NMR; test system = aqueous buffer; setting = 2 mg/mL, pH 7.5; quantity = half-life; value = 120 h
SMILES = COc1ccc(-c2csc(N/N=C(\C)c3cc(O)cc(O)c3)n2)cc1; assay = equilibrium dialysis; test system = human, male, plasma; setting = 3 µM, 5 h, pH 7.4; quantity = plasma protein binding; value = 99.8%
SMILES = C=CC(=O)Nc1cc(Nc2nccc(-n3ccc4nc(OC)ccc43)n2)c(OC)cc1N(C)CCN(C)C; test system = BALB/c nude mouse, H1975 intracranial tumour; setting = oral, 60 mg/kg, 1 h; how to read = reference: brain tumour over plasma; quantity = tissue/plasma ratio; value = 1.23
SMILES = Nc1nccc(-c2cn(C3CC3)c3ccccc23)n1; assay = radiolabelled metabolite profiling; test system = human male, plasma; setting = oral, 110 mg, 2 h; quantity = plasma concentration; value = 4.44 ng/g
SMILES = CC1=C(C=O)C(C)(C)CC=C1; test system = BALB/c mice; setting = oral, 100 mg/kg; quantity = time plasma level detectable; value = ≤ 2 h
SMILES = N=C(N)NCCC[C@@H]1NC(=O)[C@H](Cc2c[nH]c3ccccc23)NC(=O)[C@@H](CC2CCCCC2)NC(=O)[C@@H]2CCCN2C(=O)[C@@H](NC(=O)CCc2ccccc2)CCCNC1=O; assay = two-compartment model; test system = C57BL/6J mice, brain; setting = oral, 1 mg/kg; quantity = alpha rate constant; value = 2.88 h⁻¹
SMILES = COc1cc(NC(C)=O)c2c(c1O)-c1c(OC)c(OC)cc3c1C(C2)N(C)CC3 (stereo not shown); test system = rat heart homogenate; setting = 5 µg/mL, 4 h, room temperature, short-term storage; quantity = remaining compound; value = 89 ± 1.5%
SMILES = CCCC[C@@H]1NC(=O)[C@@H](NC(=O)[C@H](CCC(=O)O)NC(=O)CNC(=O)CN2CCN(CC(=O)O)CCN(CC(=O)O)CCN(CC(=O)O)CC2)CCCCNC(=O)C[C@@H](C(N)=O)NC(=O)[C@H](C(C)C)NC(=O)[C@@H]2CCCN2C(=O)[C@H](CCCNC(=N)N)NC(=O)CNC(=O)[C@H](Cc2c[nH]c3ccccc23)NC(=O)[C@H](CCCNC(=N)N)NC(=O)[C@@H](Cc2ccccc2)NC(=O)[C@H](Cc2c[nH]cn2)NC(=O)[C@H](CCC(=O)O)NC1=O [gallium-67 labelled]; test system = C57 mice, B16/F1 flank melanoma; setting = intravenous, 4 h; how to read = reference: tumour over skin; quantity = tissue ratio; value = 40.6
SMILES = Cc1cc2c(cc1C1(c3ncc(C(=O)O)cn3)CC1)C(C)(C)CCC2(C)C; test system = Sprague-Dawley rat, male, plasma; setting = oral, 100 mg/kg, 2 h, sesame oil vehicle; quantity = HDL level; value = 65 ± 7 mg/dL
SMILES = CCC/C(=C\C1=C(C(F)(F)F)C(=O)c2ccccc2C1=O)C(=O)N(CC)CC; test system = mouse liver S9; setting = 1 µM, pH 7.4, phase I metabolism; quantity = CLint scaled; value = 37.6 mL/min/kg
SMILES = CC(C)[C@H](NC(=O)CNC(=O)[C@H](CCC(N)=O)NC(=O)[C@H](C)N)C(=O)O; test system = human, both sexes, plasma; setting = intravenous infusion, 90 mg/kg/h, 2 h infusion, geometric mean; quantity = AUC(0-inf); value = 7050 ng·h/mL

For quick reference, copied from above:
SMILES = COc1cc(OC)cc(C2=C3C(C)=C(I)C(/C=C/c4cccs4)=[N+]3[B-](F)(F)n3c(/C=C/c4cccs4)c(I)c(C)c32)c1; test system = dichloromethane; quantity = log molar absorptivity; value = 4.59 M⁻¹ cm⁻¹
